# Experimental data pooled from the literature.
# Protocols differ between the studies behind these lines. Several values in a cell are separate wells, animals, samples, runs or records. ± gives the spread as reported.
# gag-pol integrase: Gag-Pol polyprotein, integrase (gag-pol, Human immunodeficiency virus type 1 group M subtype B, UniProt P04585)
# gag-pol reverse transcriptase p66/p51: Gag-Pol polyprotein, reverse transcriptase p66/p51 (gag-pol, Human immunodeficiency virus type 1 group M subtype B, UniProt P04585)
# gag-pol RT RNase H domain: Gag-Pol polyprotein, RT RNase H domain (gag-pol, Human immunodeficiency virus type 1 group M subtype B, UniProt P04585)
SMILES,target,test,test system,setting,IC50
CCOCn1c(C(=O)c2cc(C)cc(C)c2)c(CC)c(=O)n(O)c1=O,gag-pol integrase,"strand transfer, inhibitor, gel-based",HIV-1,,> 111000 nM
O=c1cc(Sc2ccccc2-c2ccc(F)cc2)[nH]c(=O)n1O,gag-pol integrase,"strand transfer activity, inhibitor",HIV-1,,> 100000 nM
C=C(C)[C@@H]1CC[C@]2(C(=O)[O-])CC[C@]3(C)[C@H](CC[C@@H]4[C@@]5(C)CC[C@H](O)C(C)(C)[C@@H]5CC[C@]43C)[C@@H]12.C[N+](C)(C)CCO,"Gag-Pol polyprotein, protease (gag-pol, Human immunodeficiency virus type 1 group M subtype B, UniProt P04585)","enzyme activity, inhibitor",,pH 4.7,22000 nM
COc1cccc(-c2ccc(Sc3cc(=O)n(O)c(=O)[nH]3)cc2)c1,gag-pol integrase,"strand transfer activity, inhibitor",HIV-1,,4000 nM
O=c1cc(CN2CCN(c3cccc(Cl)c3)CC2)c2ccc(O)c(O)c2o1,gag-pol reverse transcriptase p66/p51,"RNase H activity, inhibitor, fluorescence",HIV-1,"pH 7.4, added: 1 mM Mg2+",~800 nM and 800 nM
O=c1cc(Sc2ccc(-c3cccc(C(F)(F)F)c3)cc2)[nH]c(=O)n1O,gag-pol integrase,"strand transfer activity, inhibitor",HIV-1,,> 100000 nM
O=c1cc(CN2CCN(C(c3ccccc3)c3ccccc3)CC2)c2ccc(O)c(O)c2o1,gag-pol reverse transcriptase p66/p51,"RNase H activity, inhibitor",p66/p51 RT heterodimer,"pH 8.0, added: 10 mM Mg2+",1900 nM
NC(=O)c1c(N)sc2c1CCCCC2,gag-pol RT RNase H domain,"RNase H activity, inhibitor",,wild type reverse transcriptase,4000 ± 500 nM
CC1(C)CC(NC(=O)C(=O)Nc2ccc(Cl)cc2)CC(C)(C)N1,"Gag-Pol polyprotein, reverse transcriptase (gag-pol, Human immunodeficiency virus type 1 group M subtype B, UniProt P04585)","enzyme activity, inhibitor",,,> 300000 nM
O=C(O)c1ccc(-c2cccc(/C=N/NC(=O)c3cc(O)c(O)c(O)c3)c2)cc1,gag-pol RT RNase H domain,RNase H activity,wild-type p66/p51 RT,,200 ± 100 nM
O=C(O)Cc1cc(=O)oc2c(O)c(O)ccc12,gag-pol reverse transcriptase p66/p51,inhibitor,,,1100 nM

# Repeated from above:
SMILES,target,test,test system,setting,IC50
COc1cccc(-c2ccc(Sc3cc(=O)n(O)c(=O)[nH]3)cc2)c1,gag-pol integrase,"strand transfer activity, inhibitor",HIV-1,,4000 nM
O=c1cc(CN2CCN(c3cccc(Cl)c3)CC2)c2ccc(O)c(O)c2o1,gag-pol reverse transcriptase p66/p51,"RNase H activity, inhibitor, fluorescence",HIV-1,"pH 7.4, added: 1 mM Mg2+",~800 nM and 800 nM
